Measurements collected from several papers.
Protocols differ between the studies behind these lines. Values joined by “and” are separate records of one study, mostly repeats; a detail may differ.
Cell line: COLO 205

`S=C([S][Au-][P+](CCCCCC[P+]([Au-][S]C(=S)n1cccn1)(c1ccccc1)c1ccccc1)(c1ccccc1)c1ccccc1)n1cccn1` has a GI50 of 308 nM (cell growth).
`C#C[C@@]1(O)[C@@H](CO)O[C@@H](n2cc(F)c3c(N)ncnc32)[C@@H]1O` gave a TGI of 1300 nM (SRB; NCI-60 screen).
`Cc1cc(=O)[nH]n1-c1nc(-c2ccc(Cl)cc2)c2c(NC(=O)c3ccccc3)nnc-2[nH]1` has a cell growth of 120% (SRB; 10 µM, NCI60 single-dose screen, colon cancer; baseline: untreated).
For `C#C[C@@]1(O)[C@@H](CO)O[C@@H](n2ccc3c(N)ncnc32)[C@@H]1O`, the TGI was 2670 nM (SRB; NCI-60 screen).
`O=C(Nc1nnc2n3c(nc(-c4ccc(Cl)cc4)c1-2)SCC3=O)c1ccccc1` gave a cell growth of 127% (SRB; 10 µM, NCI60 single-dose screen, colon cancer; baseline: untreated).
`O=C1NCCc2[nH]c(-c3ccncc3)cc21` has an IC50 of over 10000 nM (MTS; colon cancer).
`COc1cnc2cccc(N3CCc4c(cc(Cn5ccnc5C)cc4-c4cn(C)nc4C(F)(F)F)C3=O)c2c1` has an EC50 of 2540 nM (cell growth, inhibitor; 120 h).
`Cn1cc(-c2ccc(-c3cncc(Cl)c3N3CCC4(CCNC4=O)CC3)cc2)cn1` — result for “log2 fold change”: 2.21 (gene expression, microarray, refers to: IFIT3 mRNA; concentration not given, 6 h; baseline: untreated cells).
For `Cc1cc(-c2ccccc2)n(-c2nc(-c3ccc(Cl)cc3)c3c(NC(=O)c4ccccc4)nnc-3[nH]2)n1`, the cell growth was 124% (SRB; 10 µM, NCI60 single-dose screen, colon cancer; baseline: untreated).
With `Cn1cncc1C1=CN(c2ncnc3[nH]cnc23)CCS1` the GI50 was 16200 nM (colon cancer).
`CC(=O)Nc1cccc(-n2c(=O)n(C3CC3)c(=O)c3c(Nc4ccc(I)cc4F)n(C)c(=O)c(C)c32)c1` has a fractional effect of 0.904 and 0.928 (cell viability, resazurin; 100.00 nM, 72 h; baseline: DMSO).

For quick reference, copied from above:
`COc1cnc2cccc(N3CCc4c(cc(Cn5ccnc5C)cc4-c4cn(C)nc4C(F)(F)F)C3=O)c2c1` has an EC50 of 2540 nM (cell growth, inhibitor; 120 h).
